{"data": "Values quoted from earlier work, collected from citations in different studies", "note": "Lines come from different studies, so protocols differ. ± gives the spread as reported.", "UniProt Q5S007, sequence (whole entry, unmodified, looked up)": "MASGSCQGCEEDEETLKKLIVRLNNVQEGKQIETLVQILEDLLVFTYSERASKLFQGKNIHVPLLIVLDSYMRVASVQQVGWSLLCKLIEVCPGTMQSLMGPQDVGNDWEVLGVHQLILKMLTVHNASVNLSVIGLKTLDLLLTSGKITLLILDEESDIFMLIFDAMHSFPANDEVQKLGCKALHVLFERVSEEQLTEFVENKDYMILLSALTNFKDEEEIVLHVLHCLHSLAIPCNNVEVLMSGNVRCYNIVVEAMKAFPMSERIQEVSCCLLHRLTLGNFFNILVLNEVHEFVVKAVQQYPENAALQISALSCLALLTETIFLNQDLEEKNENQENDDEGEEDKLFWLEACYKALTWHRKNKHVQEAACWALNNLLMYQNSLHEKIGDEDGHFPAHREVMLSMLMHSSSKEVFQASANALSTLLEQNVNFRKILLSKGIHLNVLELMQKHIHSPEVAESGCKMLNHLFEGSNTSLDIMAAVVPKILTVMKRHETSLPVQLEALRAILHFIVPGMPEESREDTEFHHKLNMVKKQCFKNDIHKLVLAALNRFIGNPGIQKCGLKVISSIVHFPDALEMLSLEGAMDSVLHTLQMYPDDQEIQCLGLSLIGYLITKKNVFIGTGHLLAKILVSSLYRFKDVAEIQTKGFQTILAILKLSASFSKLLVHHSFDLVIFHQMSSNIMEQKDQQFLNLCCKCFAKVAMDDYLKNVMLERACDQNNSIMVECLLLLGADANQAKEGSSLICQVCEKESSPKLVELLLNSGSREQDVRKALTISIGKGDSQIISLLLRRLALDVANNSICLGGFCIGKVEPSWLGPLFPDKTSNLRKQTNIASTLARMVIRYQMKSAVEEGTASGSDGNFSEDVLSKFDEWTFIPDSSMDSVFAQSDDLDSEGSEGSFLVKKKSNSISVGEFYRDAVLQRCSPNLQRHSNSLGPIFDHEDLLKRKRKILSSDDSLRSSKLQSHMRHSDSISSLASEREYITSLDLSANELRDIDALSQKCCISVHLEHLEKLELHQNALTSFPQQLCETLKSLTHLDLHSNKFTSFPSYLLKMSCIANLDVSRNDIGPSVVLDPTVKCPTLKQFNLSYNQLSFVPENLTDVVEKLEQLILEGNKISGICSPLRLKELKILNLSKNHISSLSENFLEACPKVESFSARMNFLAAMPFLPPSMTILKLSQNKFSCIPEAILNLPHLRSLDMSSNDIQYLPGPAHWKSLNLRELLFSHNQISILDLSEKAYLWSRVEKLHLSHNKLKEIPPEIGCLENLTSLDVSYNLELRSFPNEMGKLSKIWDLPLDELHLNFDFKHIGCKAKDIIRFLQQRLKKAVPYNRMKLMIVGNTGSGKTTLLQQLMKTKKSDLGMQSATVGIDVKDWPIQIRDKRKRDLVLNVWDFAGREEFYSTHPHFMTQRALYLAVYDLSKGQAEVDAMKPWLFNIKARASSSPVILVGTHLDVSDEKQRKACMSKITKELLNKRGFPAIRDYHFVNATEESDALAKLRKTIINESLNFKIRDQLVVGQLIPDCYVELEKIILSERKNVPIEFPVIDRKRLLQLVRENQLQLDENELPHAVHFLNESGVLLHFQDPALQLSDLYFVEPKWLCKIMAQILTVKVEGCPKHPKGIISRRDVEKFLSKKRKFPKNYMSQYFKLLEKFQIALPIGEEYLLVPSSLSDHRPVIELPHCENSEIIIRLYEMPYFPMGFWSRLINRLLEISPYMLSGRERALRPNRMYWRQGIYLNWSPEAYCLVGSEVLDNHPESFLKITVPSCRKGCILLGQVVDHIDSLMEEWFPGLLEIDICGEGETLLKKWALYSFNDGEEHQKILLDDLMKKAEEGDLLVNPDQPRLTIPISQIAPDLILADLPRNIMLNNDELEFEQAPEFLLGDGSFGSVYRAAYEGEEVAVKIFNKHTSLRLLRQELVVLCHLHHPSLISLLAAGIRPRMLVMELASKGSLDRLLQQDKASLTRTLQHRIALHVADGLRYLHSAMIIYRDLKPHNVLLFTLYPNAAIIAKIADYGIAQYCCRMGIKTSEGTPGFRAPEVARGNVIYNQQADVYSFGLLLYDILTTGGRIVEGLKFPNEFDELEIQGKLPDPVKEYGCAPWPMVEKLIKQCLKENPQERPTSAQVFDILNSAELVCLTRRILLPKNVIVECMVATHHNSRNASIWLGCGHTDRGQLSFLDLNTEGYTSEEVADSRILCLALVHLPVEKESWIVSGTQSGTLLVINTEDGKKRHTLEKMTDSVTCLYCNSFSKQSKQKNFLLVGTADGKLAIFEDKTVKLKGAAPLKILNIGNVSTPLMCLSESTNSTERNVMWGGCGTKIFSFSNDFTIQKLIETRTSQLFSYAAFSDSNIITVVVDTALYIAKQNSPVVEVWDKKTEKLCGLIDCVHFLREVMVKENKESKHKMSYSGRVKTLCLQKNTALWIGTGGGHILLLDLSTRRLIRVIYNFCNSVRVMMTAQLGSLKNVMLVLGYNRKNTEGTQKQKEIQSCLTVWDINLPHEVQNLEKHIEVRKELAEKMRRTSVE"}
{"SMILES": "Cc1c(C)c2c(c(C)c1O)CCC(C)(COc1ccc(CC3SC(=O)NC3=O)cc1)O2 (centres unmarked)", "test system": "human, plasma", "setting": "oral, 400 mg single dose", "measurement": "Cmax", "result": "2000 to 4000 nM"}
{"SMILES": "CC#CC(=O)N1CCC[C@H]1c1nc(-c2ccc(C(=O)Nc3ccccn3)cc2)c2c(N)nccn12", "test system": "human", "setting": "100 mg twice daily", "measurement": "Cmax", "result": "827 ng/mL"}
{"SMILES": "COc1cccc2c1C(=O)c1c(O)c3c(c(O)c1C2=O)C[C@@](O)(C(=O)CO)C[C@@H]3O[C@H]1C[C@H](N)[C@H](O)[C@H](C)O1", "test system": "human normal weight, plasma", "setting": "intravenous infusion, 60 mg/m2, 40 min infusion", "measurement": "Cmax", "result": "1160 nM"}
{"SMILES": "O=C(c1cc(Cc2n[nH]c(=O)c3ccccc23)ccc1F)N1CCN(C(=O)C2CC2)CC1", "test system": "human", "setting": "oral tablet, 200 mg twice daily, multiple dose", "measurement": "Cmax", "result": "7670 ng/mL"}
{"SMILES": "CN(C)c1ccc2nc3ccc(=[N+](C)C)cc-3sc2c1", "test system": "human, blood", "setting": "1 to 2 mg/kg", "measurement": "Cmax", "result": "2200 to 19000 nM"}
{"SMILES": "O=C(c1cccnc1-c1ccncc1)N1CCC(O)(Cc2ccccc2)CC1", "test system": "human, plasma", "setting": "300 mg single dose, with: mefenamic acid", "measurement": "Cmax", "result": "1520 ng/mL"}
{"SMILES": "CCc1nn(CCO)c(CC)c1Oc1cc(C#N)cc(C#N)c1", "test system": "human, plasma total", "setting": "1000 mg", "measurement": "Cmax", "result": "7400 nM"}
{"SMILES": "CO[C@@H](C)Cn1c(=O)n(C)c2cnc3ccc(-c4cncc(C(C)(C)O)c4)cc3c21", "test system": "human", "setting": "200 mg twice daily, monotherapy, steady state, day 15", "measurement": "Cmax", "result": "752 ng/mL"}
{"SMILES": "COCCc1ccc(OCC(O)CNC(C)C)cc1 (centres unmarked)", "test system": "human fasted", "setting": "300 mg multiple doses, day 7, mean", "measurement": "Cmax", "result": "178 ng/mL"}
{"SMILES": "NC(=O)c1cn(Cc2c(F)cccc2F)nn1", "test system": "human, plasma total", "setting": "800 mg", "measurement": "Cmax", "result": "25900 nM"}
{"SMILES": "O=C(O)C[C@H]1CC[C@H](c2ccc(-c3ccc(Nc4ccc(C(F)(F)F)nc4)cn3)cc2)CC1", "test system": "human", "setting": "dose not given", "measurement": "Cmax", "result": "2800 nM"}
{"SMILES": "Cn1c(Cn2ccc(C(F)(F)F)c(Oc3cc(Cl)cc(C#N)c3)c2=O)n[nH]c1=O", "test system": "human", "setting": "1200 mg single dose", "measurement": "Cmax", "result": "11200 nM"}
{"SMILES": "COc1ccc2nc([S@+]([O-])Cc3ncc(C)c(OC)c3C)[nH]c2c1", "test system": "Japanese non-obese humans", "setting": "intravenous bolus, 20 mg racemic omeprazole", "measurement": "Cmax", "result": "947 ng/mL"}
{"SMILES": "CC(C)c1noc(N2CCC(COc3ccc(-c4ccc(S(C)(=O)=O)cc4)nc3)CC2)n1", "test system": "human", "setting": "dose not given", "measurement": "Cmax", "result": "2000 nM"}
{"SMILES": "CNCc1cc(-c2ccccc2F)n(S(=O)(=O)c2cccnc2)c1", "test system": "human, plasma", "setting": "40 mg single dose, observed clinical data", "measurement": "Cmax", "result": "57.6 ng/mL"}
{"SMILES": "Cc1cc2c(s1)Nc1ccccc1N=C2N1CCN(C)CC1", "test system": "human", "setting": "oral, 10 mg, day 1", "measurement": "Cmax", "result": "15.2 ng/mL"}
{"SMILES": "CO[C@H]1/C=C/O[C@@]2(C)Oc3c(C)c(O)c4c(O)c(c5c(nc6cc(C)ccn65)c4c3C2=O)NC(=O)/C(C)=C\\C=C\\[C@H](C)[C@H](O)[C@@H](C)[C@@H](O)[C@@H](C)[C@H](OC(C)=O)[C@@H]1C", "test system": "human, plasma total", "setting": "200 mg", "measurement": "Cmax", "result": "2.5 nM"}
{"SMILES": "CCc1cc2c(cc1CC)CC(NC[C@H](O)c1ccc(O)c3[nH]c(=O)ccc13)C2", "test system": "human, plasma", "setting": "inhaled, dose not given", "measurement": "Cmax", "result": "0.51 nM"}
{"SMILES": "CNC(=O)c1ccccc1Sc1ccc2c(/C=C/c3ccccn3)n[nH]c2c1", "test system": "human, plasma", "setting": "concentration not given", "measurement": "Cmax", "result": "56 nM"}
{"SMILES": "COc1cc2c(Oc3ccc4[nH]c(C)cc4c3F)ccnc2cc1OCC1(N)CC1", "test system": "human", "setting": "16 mg/day, two cycles", "measurement": "Cmax", "result": "93.7 ± 27.8 ng/mL"}
{"SMILES": "Cc1cc(C)c(CNC(=O)c2cc(Cl)c3c(c2C)O[C@@](C)([C@H]2CC[C@H](N(C)C)CC2)O3)c(=O)[nH]1", "test system": "human", "setting": "oral, 200 mg single dose, geometric mean", "measurement": "Cmax", "result": "1360 ng/mL"}
{"SMILES": "O=C(CCCN1CCC(O)(c2ccc(Cl)cc2)CC1)c1ccc(F)cc1", "test system": "human, plasma", "setting": "concentration not given", "measurement": "Cmax", "result": "27 nM"}
{"SMILES": "C[C@@H](Oc1ccc(S(C)(=O)=O)cc1C(=O)N1C[C@@H]2C[C@]2(c2cc(C(F)(F)F)on2)C1)C(F)(F)F", "test system": "human", "setting": "oral, 150 mg, solution, fasted, single dose", "measurement": "Cmax", "result": "2970 nM"}
{"SMILES": "COc1cc(Cc2cnc(N)nc2N)cc(OC)c1OC", "test system": "human", "setting": "dose not given", "measurement": "Cmax", "result": "30000 nM"}
{"SMILES": "CCN1CCN(Cc2ccc(Nc3ncc(F)c(-c4cc(F)c5nc(C)n(C(C)C)c5c4)n3)nc2)CC1", "test system": "human", "setting": "oral tablet, 150 mg twice daily, multiple dose", "measurement": "Cmax", "result": "123 ng/mL"}
{"SMILES": "Nc1cc(C(F)(F)F)c(-c2nc(N3CCOCC3)nc(N3CCOCC3)n2)cn1", "target or system": "Leucine-rich repeat serine/threonine-protein kinase 2 (LRRK2, Homo sapiens, UniProt Q5S007, G2019S)", "test": "enzyme activity", "setting": "10 µM", "scale": "reference: untreated", "measurement": "remaining activity", "result": "80%"}
{"SMILES": "Cc1cc(Nc2ncc(Cl)c(Nc3ccccc3S(=O)(=O)C(C)C)n2)c(OC(C)C)cc1C1CCNCC1", "test system": "human, plasma", "setting": "dose not given", "measurement": "Cmax", "result": "1400 nM"}
{"SMILES": "COc1cc2nc(N(C)CCCNC(=O)C3CCCO3)nc(N)c2cc1OC (centres unmarked)", "test system": "human, plasma", "setting": "concentration not given", "measurement": "Cmax", "result": "32 nM"}
{"SMILES": "O=C1[C@H](CC[C@H](O)c2ccc(F)cc2)[C@@H](c2ccc(O)cc2)N1c1ccc(F)cc1", "test system": "human", "setting": "dose not given", "measurement": "Cmax", "result": "12 ng/mL"}
{"SMILES": "O=C(NCC1CCCCN1)c1cc(OCC(F)(F)F)ccc1OCC(F)(F)F (centres unmarked)", "test system": "human, plasma", "setting": "concentration not given", "measurement": "Cmax", "result": "930 nM"}
{"SMILES": "C[C@@H](Oc1cc(-c2cnn(C3CCNCC3)c2)cnc1N)c1c(Cl)ccc(F)c1Cl", "test system": "human, plasma", "setting": "dose not given", "measurement": "Cmax", "result": "610 nM"}
{"SMILES": "CCCCN1C[C@H](O)[C@@H](O)[C@H](O)[C@H]1CO", "test system": "human, plasma", "setting": "concentration not given, total plasma concentration", "measurement": "Cmax", "result": "6100 nM"}
{"SMILES": "C[C@@H](Oc1cc(-c2cnn(C3CCNCC3)c2)cnc1N)c1c(Cl)ccc(F)c1Cl", "test system": "human, plasma", "setting": "concentration not given", "measurement": "Cmax", "result": "220 nM"}
{"SMILES": "C=CC(=O)N1CCC([C@@H]2CCNc3c(C(N)=O)c(-c4ccc(Oc5ccccc5)cc4)nn32)CC1", "test system": "human patients, plasma", "setting": "oral, 160 mg twice daily, day 1", "measurement": "Cmax", "result": "376 ± 192 ng/mL"}
{"SMILES": "Cc1nsc(-c2nnc3n2CCN(C(=O)c2ccc(F)cc2)[C@@H]3C)n1", "test system": "human", "setting": "oral, 20 mg, day 21, fed", "measurement": "Cmax", "result": "185 ng/mL"}
{"SMILES": "OC(Cn1cncn1)(Cn1cncn1)c1ccc(F)cc1F", "test system": "human", "setting": "oral, 400 mg single dose", "measurement": "Cmax", "result": "7790 ng/mL"}
{"SMILES": "C[C@H]1CO[C@@H]2Cn3cc(C(=O)NCc4ccc(F)cc4F)c(=O)c(O)c3C(=O)N12", "test system": "human", "setting": "oral tablet, two 5 mg tablets, geometric mean fasted", "measurement": "Cmax", "result": "1130 ng/mL"}
{"SMILES": "Nc1nc(-n2cc(C(=O)O)c(=O)c3cc(F)c(N4CC(O)C4)c(Cl)c32)c(F)cc1F", "test system": "human, plasma total", "setting": "450 mg", "measurement": "Cmax", "result": "16900 nM"}
{"SMILES": "CC(C)C[C@H](NC(=O)[C@H](Cc1ccccc1)NC(=O)c1cnccn1)B(O)O", "test system": "human, plasma", "setting": "concentration not given", "measurement": "Cmax", "result": "1300 nM"}
{"SMILES": "OCc1cc(C(O)CNCCCCCCOCCCCc2ccccc2)ccc1O (centres unmarked)", "test system": "human, plasma", "setting": "inhaled, dose not given", "measurement": "Cmax", "result": "1.7 nM"}
{"SMILES": "CCc1ccc(CCOc2ccc(CC3SC(=O)NC3=O)cc2)nc1 (centres unmarked)", "test system": "human, plasma", "setting": "oral, 45 mg single dose", "measurement": "Cmax", "result": "3000 to 6000 nM"}
{"SMILES": "CCN(CC)Cc1ccc2cc(COC(=O)Nc3ccc(C(=O)NO)cc3)ccc2c1", "test system": "healthy male humans", "setting": "oral, 100 mg", "measurement": "Cmax", "result": "199 nM"}
{"SMILES": "CO[C@H]1O[C@H](COS(=O)(=O)O)[C@@H](O[C@@H]2O[C@@H](C(=O)O)[C@@H](O[C@H]3O[C@H](COS(=O)(=O)O)[C@@H](O[C@@H]4O[C@H](C(=O)O)[C@@H](O[C@H]5O[C@H](COS(=O)(=O)O)[C@@H](O)[C@H](O)[C@H]5NS(=O)(=O)O)[C@H](O)[C@H]4O)[C@H](OS(=O)(=O)O)[C@H]3NS(=O)(=O)O)[C@H](O)[C@H]2OS(=O)(=O)O)[C@H](O)[C@H]1NS(=O)(=O)O", "test system": "human, plasma", "setting": "concentration not given", "measurement": "Cmax", "result": "840 nM"}
{"SMILES": "NC(=O)N1c2ccccc2CC(=O)c2ccccc21", "test system": "human, plasma total", "setting": "450 mg", "measurement": "Cmax", "result": "7910 nM"}
